# Measurements collected from several papers.
# Each line is one published result; not all experiments were run side by side. Values joined by “and” are separate records of one study, mostly repeats; a detail may differ. Numbers after ± are the reported error.
# Aminopeptidase N: Aminopeptidase N (Neisseria meningitidis, UniProt Q9JYV4)
# CPL: CPL (Toxoplasma gondii, UniProt Q6DMN0)
# Chain of UniProt P06276 (whole entry, looked up): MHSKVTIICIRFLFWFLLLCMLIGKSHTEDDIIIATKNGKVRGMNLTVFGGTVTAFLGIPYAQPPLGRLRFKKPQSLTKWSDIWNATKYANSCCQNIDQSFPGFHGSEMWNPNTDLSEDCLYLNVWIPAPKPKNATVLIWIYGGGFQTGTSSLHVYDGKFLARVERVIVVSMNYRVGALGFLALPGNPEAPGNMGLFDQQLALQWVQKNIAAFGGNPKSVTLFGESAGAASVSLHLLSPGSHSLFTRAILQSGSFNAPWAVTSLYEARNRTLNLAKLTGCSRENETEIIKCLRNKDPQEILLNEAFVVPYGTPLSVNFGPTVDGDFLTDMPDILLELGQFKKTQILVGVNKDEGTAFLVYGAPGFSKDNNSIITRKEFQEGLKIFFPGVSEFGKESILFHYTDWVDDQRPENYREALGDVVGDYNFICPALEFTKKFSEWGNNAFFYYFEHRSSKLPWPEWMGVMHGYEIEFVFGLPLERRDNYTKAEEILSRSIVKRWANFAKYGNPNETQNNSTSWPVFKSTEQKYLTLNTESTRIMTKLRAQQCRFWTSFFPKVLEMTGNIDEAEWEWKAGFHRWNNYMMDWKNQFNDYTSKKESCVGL
# Chain of UniProt P17931 (whole entry, looked up): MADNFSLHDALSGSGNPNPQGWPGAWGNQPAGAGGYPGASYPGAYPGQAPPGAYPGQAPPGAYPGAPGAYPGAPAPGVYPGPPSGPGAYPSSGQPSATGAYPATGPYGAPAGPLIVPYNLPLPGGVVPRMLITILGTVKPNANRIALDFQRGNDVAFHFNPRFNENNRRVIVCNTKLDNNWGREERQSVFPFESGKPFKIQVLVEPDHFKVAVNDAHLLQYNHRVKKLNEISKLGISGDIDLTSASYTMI
# Chain of UniProt P11511 (whole entry, looked up): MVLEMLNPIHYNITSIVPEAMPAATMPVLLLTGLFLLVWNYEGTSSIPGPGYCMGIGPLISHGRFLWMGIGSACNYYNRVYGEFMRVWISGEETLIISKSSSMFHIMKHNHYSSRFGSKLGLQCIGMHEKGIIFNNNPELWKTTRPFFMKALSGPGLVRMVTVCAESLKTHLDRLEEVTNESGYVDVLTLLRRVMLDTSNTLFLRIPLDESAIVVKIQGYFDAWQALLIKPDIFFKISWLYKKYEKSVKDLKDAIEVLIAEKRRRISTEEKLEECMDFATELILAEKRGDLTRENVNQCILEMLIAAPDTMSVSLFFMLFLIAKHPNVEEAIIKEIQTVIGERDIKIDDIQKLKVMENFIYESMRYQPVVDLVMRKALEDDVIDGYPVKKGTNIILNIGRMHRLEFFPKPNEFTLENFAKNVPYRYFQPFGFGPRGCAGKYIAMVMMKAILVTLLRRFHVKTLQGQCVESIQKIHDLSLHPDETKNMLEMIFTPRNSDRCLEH
# Chain of UniProt P04062 (whole entry, looked up): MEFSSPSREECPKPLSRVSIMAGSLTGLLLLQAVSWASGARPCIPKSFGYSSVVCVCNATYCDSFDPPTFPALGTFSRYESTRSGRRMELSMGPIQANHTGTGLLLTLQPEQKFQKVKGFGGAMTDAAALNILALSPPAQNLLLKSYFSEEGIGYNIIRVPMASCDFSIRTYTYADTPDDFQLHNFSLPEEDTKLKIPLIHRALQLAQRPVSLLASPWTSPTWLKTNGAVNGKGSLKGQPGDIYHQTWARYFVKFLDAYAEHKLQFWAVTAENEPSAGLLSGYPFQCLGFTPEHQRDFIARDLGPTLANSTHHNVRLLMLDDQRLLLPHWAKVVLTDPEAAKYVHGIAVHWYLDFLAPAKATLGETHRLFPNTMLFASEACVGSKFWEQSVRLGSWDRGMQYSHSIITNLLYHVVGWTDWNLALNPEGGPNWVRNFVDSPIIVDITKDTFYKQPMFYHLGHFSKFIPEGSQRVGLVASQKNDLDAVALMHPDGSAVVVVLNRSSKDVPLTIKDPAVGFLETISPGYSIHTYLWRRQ
# Chain of UniProt O88457 (whole entry, looked up): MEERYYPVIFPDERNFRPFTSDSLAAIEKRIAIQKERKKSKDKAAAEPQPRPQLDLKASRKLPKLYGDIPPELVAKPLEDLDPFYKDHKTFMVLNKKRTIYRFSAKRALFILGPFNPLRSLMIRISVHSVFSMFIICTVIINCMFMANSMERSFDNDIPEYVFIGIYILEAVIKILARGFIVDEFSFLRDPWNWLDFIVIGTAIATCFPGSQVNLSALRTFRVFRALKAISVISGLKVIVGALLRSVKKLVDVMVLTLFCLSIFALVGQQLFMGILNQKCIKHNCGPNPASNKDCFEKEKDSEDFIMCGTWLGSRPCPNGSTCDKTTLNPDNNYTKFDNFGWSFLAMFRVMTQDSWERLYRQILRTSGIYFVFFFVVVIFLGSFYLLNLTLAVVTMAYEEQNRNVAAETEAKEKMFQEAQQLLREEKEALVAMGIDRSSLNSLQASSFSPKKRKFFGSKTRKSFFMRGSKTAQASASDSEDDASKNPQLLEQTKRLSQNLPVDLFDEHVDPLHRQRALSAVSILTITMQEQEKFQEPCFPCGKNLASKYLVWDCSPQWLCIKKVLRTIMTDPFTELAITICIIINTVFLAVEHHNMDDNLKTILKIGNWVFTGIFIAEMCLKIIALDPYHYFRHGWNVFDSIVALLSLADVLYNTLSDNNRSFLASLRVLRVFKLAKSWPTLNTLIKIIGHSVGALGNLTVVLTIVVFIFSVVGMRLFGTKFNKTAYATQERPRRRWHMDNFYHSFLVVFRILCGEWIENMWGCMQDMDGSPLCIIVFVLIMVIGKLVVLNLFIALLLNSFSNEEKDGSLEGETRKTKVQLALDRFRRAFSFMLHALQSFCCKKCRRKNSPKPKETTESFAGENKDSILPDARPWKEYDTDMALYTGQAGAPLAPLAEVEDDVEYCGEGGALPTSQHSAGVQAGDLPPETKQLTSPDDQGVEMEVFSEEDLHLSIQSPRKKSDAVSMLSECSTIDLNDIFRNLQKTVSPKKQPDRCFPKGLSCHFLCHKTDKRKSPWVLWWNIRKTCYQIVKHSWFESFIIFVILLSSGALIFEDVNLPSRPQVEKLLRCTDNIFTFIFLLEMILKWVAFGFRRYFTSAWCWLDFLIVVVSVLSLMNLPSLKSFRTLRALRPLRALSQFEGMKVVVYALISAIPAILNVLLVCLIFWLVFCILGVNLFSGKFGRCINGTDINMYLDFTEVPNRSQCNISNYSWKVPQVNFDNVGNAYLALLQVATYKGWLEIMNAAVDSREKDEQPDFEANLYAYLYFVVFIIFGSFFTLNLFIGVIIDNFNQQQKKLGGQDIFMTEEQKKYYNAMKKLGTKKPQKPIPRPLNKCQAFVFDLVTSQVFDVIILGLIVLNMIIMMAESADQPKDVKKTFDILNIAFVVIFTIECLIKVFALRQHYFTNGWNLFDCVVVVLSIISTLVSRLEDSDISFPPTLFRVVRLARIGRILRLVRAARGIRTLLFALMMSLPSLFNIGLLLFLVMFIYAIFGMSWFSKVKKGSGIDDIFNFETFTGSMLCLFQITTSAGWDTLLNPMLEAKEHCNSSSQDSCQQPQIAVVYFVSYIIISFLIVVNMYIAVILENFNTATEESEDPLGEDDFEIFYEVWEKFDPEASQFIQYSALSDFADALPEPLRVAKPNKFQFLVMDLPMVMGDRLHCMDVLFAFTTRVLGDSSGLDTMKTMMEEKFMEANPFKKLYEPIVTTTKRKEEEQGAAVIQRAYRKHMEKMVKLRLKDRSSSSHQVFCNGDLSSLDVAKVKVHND
# Chain of UniProt P22303 (whole entry, looked up): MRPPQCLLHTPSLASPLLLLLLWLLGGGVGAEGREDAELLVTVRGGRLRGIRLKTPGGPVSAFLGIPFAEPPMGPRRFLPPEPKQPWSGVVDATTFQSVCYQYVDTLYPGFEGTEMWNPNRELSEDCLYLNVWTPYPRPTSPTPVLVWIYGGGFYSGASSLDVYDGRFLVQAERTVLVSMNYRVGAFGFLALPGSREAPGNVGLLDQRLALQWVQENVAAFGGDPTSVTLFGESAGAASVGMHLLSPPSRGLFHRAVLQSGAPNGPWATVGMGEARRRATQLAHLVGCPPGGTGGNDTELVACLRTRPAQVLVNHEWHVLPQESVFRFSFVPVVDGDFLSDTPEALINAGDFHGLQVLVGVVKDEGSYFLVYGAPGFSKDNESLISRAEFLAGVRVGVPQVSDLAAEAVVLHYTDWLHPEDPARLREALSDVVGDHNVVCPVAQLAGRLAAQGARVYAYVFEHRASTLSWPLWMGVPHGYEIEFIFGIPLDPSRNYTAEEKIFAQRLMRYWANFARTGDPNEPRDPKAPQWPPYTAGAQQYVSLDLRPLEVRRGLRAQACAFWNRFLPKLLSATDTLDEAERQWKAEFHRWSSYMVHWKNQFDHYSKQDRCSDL
# Chain of UniProt Q02936 (whole entry, looked up): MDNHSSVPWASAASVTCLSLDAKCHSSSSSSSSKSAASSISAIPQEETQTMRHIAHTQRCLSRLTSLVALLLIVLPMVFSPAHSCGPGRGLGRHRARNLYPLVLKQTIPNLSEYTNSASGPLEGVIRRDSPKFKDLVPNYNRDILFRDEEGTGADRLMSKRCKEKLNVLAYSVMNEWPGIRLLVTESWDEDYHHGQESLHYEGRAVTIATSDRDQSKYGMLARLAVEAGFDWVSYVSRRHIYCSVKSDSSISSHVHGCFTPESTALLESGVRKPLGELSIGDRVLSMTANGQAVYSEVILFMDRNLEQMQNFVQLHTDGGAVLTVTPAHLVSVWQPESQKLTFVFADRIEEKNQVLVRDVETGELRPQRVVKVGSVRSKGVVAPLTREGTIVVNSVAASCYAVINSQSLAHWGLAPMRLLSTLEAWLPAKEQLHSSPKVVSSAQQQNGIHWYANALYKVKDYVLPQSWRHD
# Chain of UniProt Q86WA6 (whole entry, looked up): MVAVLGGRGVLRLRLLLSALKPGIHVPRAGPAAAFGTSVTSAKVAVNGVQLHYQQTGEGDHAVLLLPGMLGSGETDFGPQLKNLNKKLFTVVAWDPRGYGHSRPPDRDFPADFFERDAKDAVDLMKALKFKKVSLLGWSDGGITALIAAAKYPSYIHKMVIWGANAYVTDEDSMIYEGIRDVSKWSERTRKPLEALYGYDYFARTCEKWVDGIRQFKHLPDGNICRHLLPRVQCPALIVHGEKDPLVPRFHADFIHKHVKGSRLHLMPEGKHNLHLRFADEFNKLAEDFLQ
SMILES,target,test,test system,setting,scale,quantity,value
CSCC[C@H](N)C(=O)Nc1ccc2c(CC(N)=O)cc(=O)oc2c1,Aminopeptidase N,"enzyme activity, substrate",,"pH 7.5, 37 °C",,Km,80.7 ± 0.8 µM
C=C(C)C(=O)Oc1ccc(C(C)(C)c2ccc(OC(=O)C(=C)C)cc2)cc1,"Aromatase (CYP19A1, Homo sapiens, UniProt P11511)","inhibitor, tritiated water release",JEG-3,18 h,,LOEC,100 µM
Cc1cc(O)cc(C)c1CC(N)C(=O)NC1CCNc2c(C(=O)O)cc(Cc3ccccc3)cc21 (centres unmarked),"Delta-type opioid receptor (Oprd1, Rattus norvegicus, UniProt P33533)","GTPγS binding, antagonist",,added: SNC80,,Ke,15.7 nM
CC(=O)NC(Cc1ccc(Br)c(Cl)c1)C(=O)N[C@@H](C)C(=O)N1CCC[C@H]1C(=O)N1CCC[C@H]1C(=O)N[C@@H](CCC(=O)O)C(=O)N[C@@H](Cc1c[nH]cn1)C(=O)N[C@@H](CO)C(=O)N[C@H](C(=O)N[C@@H](C)C(N)=O)[C@@H](C)OP(=O)(O)O (some centres unmarked),"Glycogen synthase kinase-3 beta (GSK3B, Homo sapiens, UniProt P49841)","enzyme activity, inhibitor",,10 µM,,inhibition,0.81%
CC(C)(C)n1ccc(C(=O)N2CCN(c3nc4ccccc4s3)CC2)c1,"hh, C-terminal autoprocessing domain (Drosophila melanogaster, UniProt Q02936)",inhibitor,,10 µM,,kmax,0.00048 s⁻¹
N#Cc1nc(N2CCOCC2)nc(N(CCC2CCCCC2)Cc2ccc(F)cc2)n1,CPL,"enzyme activity, inhibitor",,,reference: human over Toxoplasma IC50,selectivity ratio,1.3
O=C(c1ccc2c(c1)c1ccccc1n2CCN1CCCCC1)c1cccc2ccccc12,"Cannabinoid receptor 1 (CNR1, Homo sapiens, UniProt P21554)","GTPγS binding, agonist",,cell membranes,,Emax,96.5%
CC(=O)/C(C#N)=C/c1cccc(C(N)=O)c1,"Genome polyprotein, 3C protease (Human enterovirus D68, UniProt Q68T42, C1641Y/I1565V/I1594T/R1603K/Y1579H)",ITC,enterovirus D68,"25 °C, added: DTT 10 mM",,-TΔS,-3.99 kcal/mol
CCN(Cc1ccccc1)C(=O)CCc1nc(CN2CCN(C(=O)Cc3ccc(OC)c(OC)c3)CC2)no1,"Sodium channel protein type 11 subunit alpha (Scn11a, Rattus norvegicus, UniProt O88457)",whole-cell patch clamp,rat DRG neurons,100 nM,,V1/2 of activation,-39.5 ± 1.35 mV
CC[C@H](C)[C@H](NC(=O)[C@H](CC(N)=O)NC(=O)[C@@H]1CCCN1C(=O)[C@H](CO)NC(=O)[C@H](CC(N)=O)NC(=O)[C@@H](N)CCC(N)=O)C(=O)N[C@@H](Cc1ccccc1)C(=O)NCC(=O)N[C@@H](CCC(N)=O)C(=O)N[C@@H](Cc1c[nH]c2ccccc12)C(=O)N[C@@H](CCSC)C(=O)O,"Fsr quorum sensing protein (Enterococcus faecalis, UniProt A0ACD6TCR9)",,,concentration not given,,activity,inactive
O=C(O)/C=C/c1cc(O)cc(O)c1,"Acetylcholinesterase (ACHE, Homo sapiens, UniProt P22303)","enzyme activity, inhibitor",,125 µg/mL,,inhibition,56.1 ± 1.1%
CC(COC(=O)c1ccccc1)OC(=O)C(N)C(C)C (mixture of isomers),"Serine hydrolase BPHL (BPHL, Homo sapiens, UniProt Q86WA6)","hydrolysis, substrate",,,,Vmax,0.0033 mM/min
CC(=O)N[C@H]1C(O)O[C@H](CO)[C@@H](O[C@@H]2O[C@H](CO)[C@H](O)[C@H](O)[C@H]2O)[C@@H]1O (some centres unmarked),"Galectin-3 (LGALS3, Homo sapiens, UniProt P17931)",isothermal titration calorimetry,,"concentration not given, full-length protein",,binding stoichiometry,0.94
CC[C@H](C)[C@H](NC(=O)[C@H](CC(N)=O)NC(=O)[C@H](CCC(=O)O)NC(=O)[C@H](CCC(=O)O)NC(=O)[C@H](CCC(=O)O)NC(=O)[C@H](CC(N)=O)NC(=O)[C@H](CCCNC(=N)N)NC(=O)[C@@H]1CCCN1C(=O)[C@H](CCCCN)NC(=O)[C@@H](NC(=O)[C@@H](NC(=O)[C@H](C)NC(=O)[C@H](CC(=O)O)NC(=O)[C@H](CCSC)NC(=O)[C@@H]1CCCN1C(=O)[C@H](CCC(=O)O)NC(=O)[C@H](C)NC(=O)[C@H](Cc1ccc(OP(=O)(O)O)cc1)NC(=O)[C@H](CC(=O)O)NC(=O)[C@H](CO)NC(=O)[C@@H]1CCCN1C(=O)[C@H](CC(=O)O)NC(C)=O)C(C)C)C(C)C)C(=O)N[C@@H](Cc1ccc(OP(=O)(O)O)cc1)C(=O)N[C@@H](CO)C(=O)N[C@H](C(=O)N1CCC[C@H]1C(=O)N[C@@H](Cc1c[nH]cn1)C(=O)N[C@@H](CC(=O)O)C(=O)N[C@@H](CO)C(N)=O)C(C)C,"Ras GTPase-activating protein 1, SH2-SH3-SH2 region (RASA1, Homo sapiens, UniProt P20936, C236S/C261S/C372S/C402S)",isothermal titration calorimetry,,"concentration not given, pH 8.0, added: doubly phosphorylated p190RhoGAP peptide",,binding enthalpy,-31.1 ± 4.78 kcal/mol
CCCCCCCCP(=O)(Oc1ccccc1)O[C@@H]1O[C@H](CO)[C@@H](O)[C@H](O)[C@H]1F (some centres unmarked),"Lysosomal acid glucosylceramidase (GBA1, Homo sapiens, UniProt P04062)","enzyme activity, irreversible inhibitor",,"pH 5.5, 37 °C, added: 2,4-dinitrophenyl beta-D-glucopyranoside",,kinact/Ki,2670 M⁻¹ s⁻¹
NC(=O)Cc1cc(=O)oc2cc(NC(=O)[C@@H](N)Cc3ccccc3)ccc12,Aminopeptidase N,"enzyme activity, substrate",,"pH 7.5, 37 °C",,Km,> 250 µM
CC[C@H](C)[C@H]1C(=O)O[C@H](C(C)C)C(=O)N(C)[C@@H]([C@@H](C)CC)C(=O)O[C@H](C(C)C)C(=O)N(C)[C@@H]([C@@H](C)CC)C(=O)O[C@H](C(C)C)C(=O)N1C,"Heat shock protein HSP 90-beta (HSP90AB1, Homo sapiens, UniProt P08238)",CETSA,Hs-578T,"20 µM, 1 h",,thermal stabilization temperature,> 61 °C
CCC(C)Sc1nc2c([nH]1)c(=S)n(C)c(=O)n2C (centres unmarked),"Glucocorticoid receptor (Nr3c1, Rattus norvegicus, UniProt P06536)","reporter gene, antagonist, MMTV-luciferase",T47D/A1-2,"10 µM, 24 h, added: 5 nM dexamethasone",reference: maximal activity,remaining activity,86%
S=C(NCc1ccccn1)NCc1ccccn1,"Cholinesterase (BCHE, Homo sapiens, UniProt P06276)","enzyme activity, inhibitor, Ellman",,500 µg/mL,,inhibition,62.3%
CC(C)CCN(Cc1ccc(F)cc1)c1nc(C#N)nc(N2CCOCC2)n1,CPL,"enzyme activity, inhibitor",,,reference: human over Toxoplasma IC50,selectivity ratio,0.94 and 0.9
CC[C@H](C)[C@H](NC(=O)[C@H](CC(N)=O)NC(=O)[C@H](CC(N)=O)NC(=O)[C@@H](N)CCCNC(N)=O)C(=O)N1C[C@@H](n2cc([C]34[CH]5[CH]6[CH]7[CH]3[Fe]6754389%10[CH]4[CH]3[CH]8[CH]9[CH]4%10)nn2)C[C@H]1C(=O)N[C@@H](Cc1csc2ccccc12)C(=O)N[C@@H](CO)C(N)=O (some centres unmarked),"Envelope glycoprotein gp160 (env, Human immunodeficiency virus type 1 group M subtype B, UniProt P35961)",ITC,,"concentration not given, pH 7.4, 25 °C",,binding entropy term -TΔS,5.1 ± 2.6 kcal/mol
CC(C)P(=S)(NP(=S)(C(C)C)C(C)C)C(C)C,"Alpha-amylase (Bacillus subtilis, UniProt P00691)",fluorescence quenching,,"concentration not given, pH 6.8, 298 K",,ΔG of binding,-3.92 kcal/mol
Nc1nc2c([C@@H]3O[C@@H]4COP(=O)(O)O[C@H]5[C@@H](O)[C@H](n6cnc7c(=O)[nH]c(N)nc76)O[C@@H]5COP(=O)(O)O[C@H]4[C@H]3O)snc2c(=O)[nH]1,"Cyclic di-GMP phosphodiesterase RocR (rocR, Pseudomonas aeruginosa, UniProt Q9HX69)","substrate, HPLC",,"10 µM, added: 100 nM enzyme",,dissociation rate constant k-1,0.096 ± 0.091 s⁻¹

# For quick reference, copied from above:
SMILES,target,test,test system,setting,scale,quantity,value
NC(=O)Cc1cc(=O)oc2cc(NC(=O)[C@@H](N)Cc3ccccc3)ccc12,Aminopeptidase N,"enzyme activity, substrate",,"pH 7.5, 37 °C",,Km,> 250 µM
CC(C)CCN(Cc1ccc(F)cc1)c1nc(C#N)nc(N2CCOCC2)n1,CPL,"enzyme activity, inhibitor",,,reference: human over Toxoplasma IC50,selectivity ratio,0.94 and 0.9
N#Cc1nc(N2CCOCC2)nc(N(CCC2CCCCC2)Cc2ccc(F)cc2)n1,CPL,"enzyme activity, inhibitor",,,reference: human over Toxoplasma IC50,selectivity ratio,1.3
